Measured values from different studies.
Compare with care: the assays were run in different laboratories. ± gives the spread as reported. Bridges are numbered along the chain shown (N, C = ends). Where no end group is shown, it is not given here.
B1: NADK2 (Homo sapiens, UniProt Q4G0N4); chain LGQGQPRELAGCGSRADGGFRPSRVVVVAKTTRYEFEQQRYRYAELSEEDLKQLLALKGSSYSGLLERHHIHTKNVEHIIDSLRNEGIEVRLVKRREYDEETVRWADAVIAAGGDGTMLLAASKVLDRLKPVIGVNTDPERSEGHLCLPVRYTHSFPEALQKFYRGEFRWLWRQRIRLYLEGTGINPVPVDLHEQQLSLNQHNRALNIERAHDERSEASGPQLLPVRALNEVFIGESLSSRASYYEISVDDGPWEKQKSSGLNLCTGTGSKAWSFNINRVATQAVEDVLNIAKRQGNLSLPLNRELVEKVTNEYNESLLYSPEEPKILFSIREPIANRVFSSSRQRCFSSKVCVRSRCWDACMVVDGGTSFEFNDGAIASMMINKEDELRTVLLEQ
B2: Msh2/Msh3 (Saccharomyces cerevisiae); chain 1 MSSTRPELKFSDVSEERNFYKKYTGLPKKPLKTIRLVDKGDYYTVIGSDAIFVADSVYHTQSVLKNCQLDPVTAKNFHEPTKYVTVSLQVLATLLKLCLLDLGYKVEIYDKGWKLIKSASPGNIEQVNELMNMNIDSSIIIASLKVQWNSQDGNCIIGVAFIDTTAYKVGMLDIVDNEVYSNLESFLIQLGVKECLVQDLTSNSNSNAEMQKVINVIDRCGCVVTLLKNSEFSEKDVELDLTKLLGDDLALSLPQKYSKLSMGACNALIGYLQLLSEQDQVGKYELVEHKLKEFMKLDASAIKALNLFPQGPQNPFGSNNLAVSGFTSAGNSGKVTSLFQLLNHCKTNAGVRLLNEWLKQPLTNIDEINKRHDLVDYLIDQIELRQMLTSEYLPMIPDIRRLTKKLNKRGNLEDVLKIYQFSKRIPEIVQVFTSFLEDDSPTEPVNELVRSVWLAPLSHHVEPLSKFEEMVETTVDLDAYEENNEFMIKVEFNEELGKIRSKLDTLRDEIHSIHLDSAEDLGFDPDKKLKLENHHLHGWCMRLTRNDAKELRKHKKYIELSTVKAGIFFSTKQLKSIANETNILQKEYDKQQSALVREIINITLTYTPVFEKLSLVLAHLDVIASFAHTSSYAPIPYIRPKLHPMDSERRTHLISSRHPVLEMQDDISFISNDVTLESGKGDFLIITGPNMGGKSTYIRQVGVISLMAQIGCFVPCEEAEIAIVDAILCRVGAGDSQLKGVSTFMVEILETASILKNASKNSLIIVDELGRGTSTYDGFGLAWAIAEHIASKIGCFALFATHFHELTELSEKLPNVKNMHVVAHIEKNLKEQKHDDEDITLLYKVEPGISDQSFGIHVAEVVQFPEKIVKMAKRKANELDDLKTNNEDLKKAKLSLQEVNEGNIRLKALLKEWIRKVKEEGLHDPSKITEEASQHKIQELLRAIANEPEKENDNYLKYIKALLL; chain 2 MAGQPTISRFFKKAVKSELTHKQEQEVAVGNGAGSESICLDTDEEDNLSSVASTTVTNDSFPLKGSVSSKNSKNSEKTSGTSTTFNDIDFAKKLDRIMKRRSDENVEAEDDEEEGEEDFVKKKARKSPTAKLTPLDKQVKDLKMHHRDKVLVIRVGYKYKCFAEDAVTVSRILHIKLVPGKLTIDESNPQDCNHRQFAYCSFPDVRLNVHLERLVHHNLKVAVVEQAETSAIKKHDPGASKSSVFERKISNVFTKATFGVNSTFVLRGKRILGDTNSIWALSRDVHQGKVAKYSLISVNLNNGEVVYDEFEEPNLADEKLQIRIKYLQPIEVLVNTDDLPLHVAKFFKDISCPLIHKQEYDLEDHVVQAIKVMNEKIQLSPSLIRLVSKLYSHMVEYNNEQVMLIPSIYSPFASKIHMLLDPNSLQSLDIFTHDGGKGSLFWLLDHTRTSFGLRMLREWILKPLVDVHQIEERLDAIECITSEINNSIFFESLNQMLNHTPDLLRTLNRIMYGTTSRKEVYFYLKQITSFVDHFKMHQSYLSEHFKSSDGRIGKQSPLLFRLFSELNELLSTTQLPHFLTMINVSAVMEKNSDKQVMDFFNLNNYDCSEGIIKIQRESESVRSQLKEELAEIRKYLKRPYLNFRDEVDYLIEVKNSQIKDLPDDWIKVNNTKMVSRFTTPRTQKLTQKLEYYKDLLIRESELQYKEFLNKITAEYTELRKITLNLAQYDCILSLAATSCNVNYVRPTFVNGQQAIIAKNARNPIIESLDVHYVPNDIMMSPENGKINIITGPNMGGKSSYIRQVALLTIMAQIGSFVPAEEIRLSIFENVLTRIGAHDDIINGDSTFKVEMLDILHILKNCNKRSLLLLDEVGRGTGTHDGIAISYALIKYFSELSDCPLILFTTHFPMLGEIKSPLIRNYHMDYVEEQKTGEDWMSVIFLYKLKKGLTYNSYGMNVAKLARLDKDIINRAFSISEELRKESINEDALKLFSSLKRILKSDNITATDKLAKLLSLDIH
B3: UGT1A9 (Homo sapiens, UniProt O60656); chain GKLLVVPMDGSHWFTMRSVVEKLILRGHEVVVVMPEVSWQLGRSLNCTVKTYSTSYTLEDLDREFKAFAHAQWKAQVRSIYSLLMGSYNDIFDLFFSNCRSLFKDKKLVEYLKESSFDAVFLDPFDNCGLIVAKYFSLPSVVFARGILCHYLEEGAQCPAPLSYVPRILLGFSDAMTFKERVRNHIMHLEEHLLCHRFFKNALEIASEILQTPVTEYDLYSHTSIWLLRTDFVLDYPKPVMPNMIFIGGINCHQGKPLPMEFEAYINASGEHGIVVFSLGSMVSEIPEKKAMAIADALGKIPQTVLWRYTGTRPSNLANNTILVKWLPQNDLLGHPMTRAFITHAGSHGVYESICNGVPMVMMPLFGDQMDNAKRMETKGAGVTLNVLEMTSEDLENALKAVINDKSYKENIMRLSSLHKDRPVEPLDLAVFWVEFVMRHKGAPHLRPAAHDLTWYQYHSLDVIGFLLAVVLTVAFITFKCCAYGYRKCLGKKGRVKKAHKSKTH
B4: aromatic amino acid decarboxylase (Bacillus atrophaeus, UniProt I0DFJ0); chain MSENLQLSAEEMRQLGYQAVDLIIDHMNHLKSKPVSETIDSDILRNKLTESIPENGSDPKELLHFLNRNVFNQITHVDHPHFLAFVPGPNNYVGVVADFLASGFNVFPTAWIAGAGAEQIELTTINWLKSMLGFPDSAEGLFVSGGSMANLTALTVARQAKLNNDIENAVVYFSDQTHFSVDRALKVLGFKHHQICRIETDEHLRISVSALKKQIKEDRTKGKKPFCVIANAGTTNCGAVDSLNELADLCNDEDVWLHADGSYGAPAILSEKGSAMLQGIHRADSLTLDPHKWLFQPYDVGCVLIRNSQYLSKTFRMMPEYIKDSETNVEGEINFGECGIELSRRFRALKVWLSFKVFGVAAFRQAIDHGIMLAEQVEAFLGKAKDWEVVTPAQLGIVTFRYIPSELASTDTINEINKKLVKEITHRGFAMLSTTELKEKVVIRLCSINPRTTTEEMLQIMMKIKALAEEVSISYPCVAE

Substance	tested on	assay	test system	setting	how to read	measurement	value
CC(C)[C@H](NC(=O)[C@@H]1CCCN1C(=O)[C@H](CCCNC(=N)N)NC(=O)[C@H](CS)NC(=O)[C@H](Cc1c[nH]c2ccccc12)NC(=O)[C@H](CCCNC(=N)N)NC(=O)[C@@H](Cc1ccccc1)NC(=O)[C@H](Cc1c[nH]cn1)NC(=O)[C@H](CCC(=O)O)NC(=O)[C@H](CS)NC(=O)[C@H](CS)NC(=O)[C@H](CCCCN)NC(=O)[C@@H]1CC(=O)N[C@@H](CCCNC(=N)N)C(=O)N[C@@H](C)C(=O)N[C@@H](CC(=O)O)C(=O)N[C@H](Cc2ccc(O)cc2)C(=O)N1)C(N)=O [technetium-99m labelled]	–	–	C57 mice, brain	intravenous, 0.037 MBq, 2 h	–	tissue uptake	0.04 ± 0.01 %ID/g
B1 (NADK2)	NC(=O)c1ccc[n+]([C@@H]2O[C@H](COP(=O)(O)OP(=O)(O)OC[C@H]3O[C@@H](n4cnc5c(N)ncnc54)[C@H](O)[C@@H]3O)[C@@H](O)[C@H]2O)c1	steady-state kinetics	–	37 °C	–	kcat	1.4 s⁻¹
B2 (Msh2/Msh3)	Nc1ncnc2c1ncn2[C@@H]1O[C@H](COP(=O)(O)OP(=O)(O)OP(=O)(O)O)[C@@H](O)[C@H]1O	steady-state kinetics	–	pH 7.5, 30 °C, no DNA, with: magnesium acetate 2 mM	–	kcat	0.353 s⁻¹
PRL (Homo sapiens, UniProt P01236)	–	NMR, refers to: His180	–	35 °C, 25 mM NaCl, apparent; independent-site fit, numbering of the source	–	pKa	5.86
B3 (UGT1A9)	Cc1cc(=O)oc2cc(O)ccc12	steady-state kinetics	–	pH 7.4, 37 °C	–	Vmax/Km	304 µL/min/mg
Insulin human	–	–	rat, olfactory bulb	intranasal, 20 µg per nostril, 60 min	–	brain concentration	134 ± 54.4 pg/mg tissue
CPSSSREKC (disulfide 1-9 (inferred)) (disulfide)	CuFi-1	flow cytometry	nanoparticles after CF sputum permeation	2 h, 37 °C	relative to: 1 kDa mPEG-coated nanoparticles	cell uptake	2.2 fold
B4	N[C@@H](Cc1c[nH]c2c(Cl)cccc12)C(=O)O	steady-state kinetics	–	pH 7, 37 °C, not purified, with: PLP 40 µM	–	Vmax	0.3 µmol/min/mg

Excerpt of the above:
Substance	tested on	assay	test system	setting	how to read	measurement	value
B1 (NADK2)	NC(=O)c1ccc[n+]([C@@H]2O[C@H](COP(=O)(O)OP(=O)(O)OC[C@H]3O[C@@H](n4cnc5c(N)ncnc54)[C@H](O)[C@@H]3O)[C@@H](O)[C@H]2O)c1	steady-state kinetics	–	37 °C	–	kcat	1.4 s⁻¹
